# Results pooled from the literature.
# Parts stem from different laboratories: compare values within a part only.
# UniProt P61075, sequence (whole entry, looked up): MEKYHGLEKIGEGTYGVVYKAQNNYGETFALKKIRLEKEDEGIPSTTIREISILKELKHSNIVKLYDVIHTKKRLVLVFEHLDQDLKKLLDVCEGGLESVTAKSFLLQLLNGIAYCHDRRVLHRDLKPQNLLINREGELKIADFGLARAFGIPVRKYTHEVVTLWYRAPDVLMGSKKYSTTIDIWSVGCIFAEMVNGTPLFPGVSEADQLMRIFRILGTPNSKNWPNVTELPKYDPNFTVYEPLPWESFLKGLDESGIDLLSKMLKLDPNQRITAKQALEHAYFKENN
# UniProt P9WI81, sequence (whole entry, looked up): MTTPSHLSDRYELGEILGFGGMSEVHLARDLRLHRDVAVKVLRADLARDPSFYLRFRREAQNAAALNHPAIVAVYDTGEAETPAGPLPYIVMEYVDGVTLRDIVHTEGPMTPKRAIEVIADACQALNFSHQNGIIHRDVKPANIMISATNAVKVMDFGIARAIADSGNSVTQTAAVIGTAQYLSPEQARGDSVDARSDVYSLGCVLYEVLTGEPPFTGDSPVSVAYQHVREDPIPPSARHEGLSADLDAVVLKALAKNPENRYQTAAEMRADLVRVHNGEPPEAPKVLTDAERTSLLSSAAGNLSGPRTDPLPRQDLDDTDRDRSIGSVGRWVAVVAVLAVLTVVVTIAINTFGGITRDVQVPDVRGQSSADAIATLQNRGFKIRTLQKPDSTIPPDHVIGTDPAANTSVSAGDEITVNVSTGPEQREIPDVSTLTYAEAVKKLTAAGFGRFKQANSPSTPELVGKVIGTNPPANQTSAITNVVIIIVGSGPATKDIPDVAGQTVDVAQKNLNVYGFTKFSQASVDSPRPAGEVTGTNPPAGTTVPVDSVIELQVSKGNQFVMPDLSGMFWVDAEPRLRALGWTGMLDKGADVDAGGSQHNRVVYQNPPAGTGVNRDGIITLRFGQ

# Series 1
# Target: HLA class I histocompatibility antigen, B alpha chain, allele B*08:02 (Homo sapiens, UniProt P01889)
# Observed: peptide-MHC binding
# Molecule type: peptide
# Concentration: concentration not given
Molecule,binding
WAKRRPATF,active
YARRYFYPL,active
FLIRRFFMF,active

# Single results of other studies
# CAMK2A: Calcium/calmodulin-dependent protein kinase type II subunit alpha (CAMK2A, Homo sapiens, UniProt Q9UQM7)
# UniProt Q9UQM7, sequence (whole entry, looked up): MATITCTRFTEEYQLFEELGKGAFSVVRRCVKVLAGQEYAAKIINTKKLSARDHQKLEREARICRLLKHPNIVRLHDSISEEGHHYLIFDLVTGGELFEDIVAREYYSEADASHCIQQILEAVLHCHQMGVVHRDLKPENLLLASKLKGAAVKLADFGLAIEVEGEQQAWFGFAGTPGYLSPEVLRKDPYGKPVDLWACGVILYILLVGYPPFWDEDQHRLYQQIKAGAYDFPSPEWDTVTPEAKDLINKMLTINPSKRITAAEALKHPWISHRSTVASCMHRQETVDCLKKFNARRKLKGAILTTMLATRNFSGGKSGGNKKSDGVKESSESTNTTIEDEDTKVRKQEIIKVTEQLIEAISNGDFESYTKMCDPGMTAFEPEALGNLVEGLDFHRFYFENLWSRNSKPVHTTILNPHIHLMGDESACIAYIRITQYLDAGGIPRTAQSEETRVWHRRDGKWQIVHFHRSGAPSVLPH
SMILES,target,test,conditions,scale,measurement,value
Cc1cccc(C=O)c1,CAMK2A,"enzyme activity, inhibitor",10 µM,,inhibition,0%
Cc1cc(NC(=O)c2cccc(S(F)(F)(F)(F)F)c2)cc(-n2ccn3nc(-c4cccnc4)cc23)c1,"Cyclin-dependent kinase 2 homolog (CRK2, Plasmodium falciparum, UniProt P61075)","cell-free assay, competition with immobilised ligand",1 µM,,remaining binding,71.8%
COC[C@H]1OC(=O)c2coc3c2[C@@]1(C)C1=C(C3=O)[C@@H]2CCC(=O)[C@@]2(C)C[C@H]1OC(C)=O,panel of 300 human kinases,,0.5 µM,higher = more selective,Gini score,0.59
Oc1ccc2ccc3cccc4ccc1c2c34,CAMK2A,"enzyme activity, inhibitor",10 µM,,inhibition,11%
COc1cccc(CNC(=O)c2nc3scc(COCc4ccc(C(=O)O)cc4)c3c(=O)[nH]2)c1,"Serine/threonine-protein kinase PknB (pknB, Mycobacterium tuberculosis, UniProt P9WI81)","cell-free assay, competition with immobilised ligand",1 µM,,remaining binding,93%
C=CCC(C(=O)NC(N)=O)C(C)C (stereo not shown),CAMK2A,"enzyme activity, inhibitor",10 µM,,inhibition,-5%
CC(C)(C)c1cc(C=C(C#N)C#N)cc(Br)c1O,panel of 300 human kinases,,0.5 µM,higher = more selective,Gini score,0.71

# A few entries again (single results of other studies):
SMILES,target,test,conditions,scale,measurement,value
Cc1cccc(C=O)c1,CAMK2A,"enzyme activity, inhibitor",10 µM,,inhibition,0%
